Assay results from different studies.
Each line is one published result; not all experiments were run side by side. Values joined by “and” are separate records of one study, mostly repeats; a detail may differ. ± gives the spread as reported.
CYP2B6: Cytochrome P450 2B6 (CYP2B6, Homo sapiens, UniProt P20813)
murE: UDP-N-acetylmuramoyl-L-alanyl-D-glutamate--2,6-diaminopimelate ligase (murE, Mycobacterium tuberculosis, UniProt P9WJL3)
Genome polyprotein protease: Genome polyprotein, protease (Enterovirus A71, UniProt Q66478)
Urease: Urease (Canavalia ensiformis, UniProt P07374)

CC(C)C[C@H](N)C(=O)NCC(=O)N[C@H](C(=O)N[C@@H](C)C(=O)N1CCC[C@H]1C(=O)N[C@H](C(=O)N[C@@H](CCCCN)C(=O)N[C@@H](C)C(=O)N[C@@H](CCCCN)C(=O)N[C@@H](CCCNC(=N)N)C(=O)N[C@@H](CCCNC(=N)N)C(=O)N[C@H](C(=O)N[C@H](C(=O)N[C@@H](CCC(N)=O)C(=O)N[C@@H](CCCNC(=N)N)C(=O)N[C@@H](CCC(=O)O)C(=O)N[C@@H](CCCCN)C(=O)N[C@@H](CCCNC(=N)N)C(N)=O)C(C)C)C(C)C)[C@@H](C)O)C(C)C
IC50 (Furin (FURIN, Homo sapiens, UniProt P09958); enzyme activity, inhibitor, HPLC; pH 7): > 100 µM

Cc1ccccc1N1C(=O)/C(=C/c2ccc(OCc3cccc(C(=O)O)c3)cc2)C(=O)NC1=S
IC50 (Tyrosine-protein phosphatase non-receptor type 6 (PTPN6, Homo sapiens, UniProt P29350); enzyme activity, inhibitor): 23.2 µM

C=C(C)C1C2OC(=O)C1C1(O)CC3OC34C(=O)OC2C14C (stereo not shown)
IC50 (GABA-A receptor; alpha-1/beta-2/gamma-2 (Homo sapiens, UniProt P14867+P18507+P47870); ion current, two-electrode voltage clamp; oocytes): 4.47 µM

C=CC(=O)NC(CC(=C)C)C(=O)N1CC(C(=O)NC(C(=O)NC)C(C)CC)C(c2cccc(C(F)(F)F)c2)C1 (stereo not shown)
IC50 (Replicase polyprotein 1ab, main protease (rep, Human coronavirus NL63, UniProt P0C6X5); enzyme activity, inhibitor): > 100 µM

CCCCCc1cc(O)c2c(c1)OC(C)(C)C1CCC(CO)=CC21 (stereo not shown)
IC50 (CYP2B6; enzyme activity, inhibitor; microsomes from HEK cells; 30 min, preincubation with NADPH): 6.1 ± 1 µM

CSCC[C@@H]1NC(=O)[C@H](CCC(=O)O)NC(=O)[C@H](CC(C)C)NC(=O)[C@H](CC(C)C)NC(=O)[C@H](CCCCN)NC(=O)[C@H](CC(=O)O)NC(=O)[C@H](CC(=O)O)NC(=O)[C@H](CC(N)=O)NC(=O)[C@H](CC(=O)O)NC(=O)[C@@H]2CSSC[C@@H]3NC(=O)[C@H]([C@@H](C)O)NC(=O)[C@H](C(C)C)NC(=O)[C@@H]4CCCN4C(=O)[C@H](CSSC[C@H](NC(=O)[C@H](CC(=O)O)NC(=O)[C@H](Cc4ccccc4)NC(=O)[C@H](CC(N)=O)NC(=O)[C@H](CCCCN)NC(=O)[C@H](CCC(=O)O)NC(=O)[C@H](CC(=O)O)NC(=O)[C@H](C)NC(=O)[C@@H](NC(=O)[C@H](Cc4c[nH]cn4)NC(=O)[C@@H](N)CCC(=O)O)CSSC[C@@H](C(N)=O)NC(=O)[C@H](Cc4ccccc4)NC(=O)CNC3=O)C(=O)N[C@@H](CCCNC(=N)N)C(=O)N[C@@H](CCCNC(=N)N)C(=O)N[C@@H](CO)C(=O)N[C@@H](CC(C)C)C(=O)N[C@@H](CCCNC(=N)N)C(=O)N[C@@H](CC(N)=O)C(=O)NCC(=O)N[C@@H](CC(=O)O)C(=O)N2)NC(=O)[C@H](Cc2ccc(O)cc2)NC(=O)[C@H](Cc2ccc(O)cc2)NC(=O)CNC1=O
IC50 (Potassium voltage-gated channel subfamily A member 3 (KCNA3, Homo sapiens, UniProt P22001); ion current, inhibitor, two-electrode voltage clamp; pH 7.45, oocytes): 0.829 µM and 0.83 µM

CCCCCCCCC/C=C\CCCc1cc(=O)c2ccccc2n1C
IC50 (murE; enzyme activity, inhibitor, absorbance): 52 µM

CCC[C@@H](C(=O)c1ccccc1)N1CCCC1
IC50 (Sodium-dependent dopamine transporter (SLC6A3, Homo sapiens, UniProt Q01959); transporter uptake, inhibitor, radiometric): 0.02 µM

O=C1C=CC(=O)c2cn(Cc3ccccc3)cc21
IC50 (Genome polyprotein protease; enzyme activity, inhibitor): > 50 µM

OC(c1ccccc1)(c1ccccc1)[C@H]1CCCN1
IC50 (Intermediate conductance calcium-activated potassium channel protein 4 (KCNN4, Homo sapiens, UniProt O15554); ion current, inhibitor, patch clamp): > 50 µM

CCCCCc1cc(O)c2c(c1)OC(C)(C)C1CCC(C)=CC21 (single isomer, unassigned; (-))
IC50 (CYP2B6; inhibitor; human, pooled liver microsomes; pH 7.4, added: bupropion): 0.97 ± 0.12 µM

CCCCCc1cc(O)c2c(c1)OC(C)(C)C1CCC(C)=CC21 (single isomer, unassigned; (-))
IC50 (UDP-glucuronosyltransferase 2B4 (UGT2B4, Homo sapiens, UniProt P06133); enzyme activity, inhibitor; recombinant UGT2B4 microsomes from HEK293; pH 7.4, glucuronidation, added: codeine): 0.47 ± 0.11 µM

COc1cc(C[S+]([O-])c2nc3cccnc3s2)oc(=O)c1 (stereo not shown)
IC50 (Genome polyprotein protease; enzyme activity, inhibitor): > 50 µM

Cc1cc(Oc2nc(N3CC[C@@H](c4ccncc4)C3)ncc2F)[nH]n1
IC50 (Amidophosphoribosyltransferase (purF, Mycobacterium tuberculosis, UniProt P9WHQ7); enzyme activity, inhibitor): 0.001 µM

O=C1C[C@@H](c2ccc(O[C@@H]3O[C@H](CO)[C@@H](O)[C@H](O)[C@H]3O[C@@H]3OC[C@](O)(COC(=O)c4c[nH]c5ccccc45)[C@H]3O)cc2)Oc2cc(O)ccc21
IC50 (Neuraminidase (NA, Influenza A virus, UniProt P03468); enzyme activity, inhibitor): 0.34 µM

Clc1ccc(C2C(n3ccnc3)C(c3ccc(Br)cc3)=NN2c2ccc(Cl)c(Cl)c2)cc1 (stereo not shown)
IC50 (Genome polyprotein protease; enzyme activity, inhibitor): 0.5 µM

CCCCCc1cc(O)cc2c1Oc1cc(O)cc(C(=O)CCCC)c1C(=O)O2
IC50 (Endonuclease 8 2 (nei2, Mycobacterium tuberculosis, UniProt P9WNC1); uracil DNA glycosylase activity, inhibitor, gel-based cleavage; added: uracil-containing ssDNA substrate): 41.8 µM

O=C1C2=C(Nc3[nH]c(=O)[nH]c(=O)c3C23C(=O)Nc2ccc(Cl)cc23)c2ccccc21 (stereo not shown)
IC50 (Urease; enzyme activity, inhibitor, absorbance): 5.56 µM

CCCCn1c(NCc2ccc(N3N=C(c4ccccc4)CC3c3ccccc3)cc2)nc2ccccc21 (stereo not shown)
IC50 (Genome polyprotein protease; enzyme activity, inhibitor): 3.3 µM

C=CC(=O)NC(CC(=C)C)C(=O)N1CC(C(=O)NC(CCSC)C(=O)NC)C(c2cccc(C(F)(F)F)c2)C1 (stereo not shown)
IC50 (Replicase polyprotein 1ab, main protease (rep, Human coronavirus 229E, UniProt P0C6X1); enzyme activity, inhibitor): > 100 µM

NC[C@@H](CC[C@H](N)C(=O)O)C[C@H]1O[C@@H](n2cnc3c(N)ncnc32)[C@H](O)[C@@H]1O
IC50 (Replicase polyprotein 1ab, nsp10-nsp16 complex (rep, Human coronavirus 229E, UniProt P0C6X1)): 24 ± 3 µM

COc1cc(N2CCN(C)CC2)ccc1Nc1ncc2c(n1)N(C1CCC1)C(=O)N(c1c(C)cccc1C)C2
IC50 (Serine/threonine-protein kinase SIK2 (SIK2, Homo sapiens, UniProt Q9H0K1); enzyme activity, inhibitor): 0.014 µM

C[C@]12CC[C@H](O)CC1=CC[C@@H]1[C@@H]2CC[C@]2(C)C(=O)CC[C@@H]12
IC50 (Glucose-6-phosphate 1-dehydrogenase (G6PD, Homo sapiens, UniProt P11413); enzyme activity, inhibitor): 9 µM

C=CC(=O)NC(CC(=C)C)C(=O)N1CC(C(=O)NC(Cc2ccccc2)C(=O)NC)C(c2cccc(C(F)(F)F)c2)C1 (stereo not shown)
IC50 (Replicase polyprotein 1ab, main protease (rep, Human coronavirus NL63, UniProt P0C6X5); enzyme activity, inhibitor): > 100 µM

CCCCCc1cc(O)c2c(c1)OC(C)(C)c1cc(O)c(C)cc1-2
IC50 (rat intestinal α-glucosidase; enzyme activity, inhibitor): 90 µM

C=CC(=O)NC(CC(=C)C)C(=O)N1CC(C(=O)NC(Cc2ccco2)C(=O)NC)C(c2cccc(C(F)(F)F)c2)C1 (stereo not shown)
IC50 (Replicase polyprotein 1ab, main protease (rep, Human coronavirus 229E, UniProt P0C6X1); enzyme activity, inhibitor): > 100 µM

C[C@@H](CN1CCC(n2c(=O)[nH]c3cc(Br)ccc32)CC1)NC(=O)[C@@H]1C[C@H]1c1ccccc1
IC50 (Phospholipase D (Pseudomonas aeruginosa, UniProt Q9HYC2); enzyme activity, inhibitor): 26.1 µM

C=CC(=O)N1CCN(c2cc(-c3ccc(C4CCC4)cc3)ncc2C(=O)N[C@H](Cc2ccccc2)C(=O)NC)C(C)C1 (stereo partly shown)
IC50 (Replicase polyprotein 1ab, main protease (rep, Human coronavirus NL63, UniProt P0C6X5); enzyme activity, inhibitor): > 100 µM

CCCCCCCC/C=C\CCCCc1cc(=O)c2ccccc2n1C
IC50 (murE; enzyme activity, inhibitor, HPLC): 95 µM

C=CCC(NC(=O)C1CN(C(=O)C(CC(=C)C)NC(=O)C=C)CC1c1cccc(C(F)(F)F)c1)C(=O)NC (stereo not shown)
IC50 (Replicase polyprotein 1ab, main protease (rep, Human coronavirus 229E, UniProt P0C6X1); enzyme activity, inhibitor): > 100 µM

O=C1C2=C(Nc3[nH]c(=O)[nH]c(=O)c3C23C(=O)Nc2ccccc23)c2ccccc21 (stereo not shown)
IC50 (Urease; enzyme activity, inhibitor, absorbance): 1.94 µM
